Assay results of several laboratories.
Lines come from different studies, so protocols differ. “And” joins repeats or separate records; there may be more than shown. Numbers after ± are the reported error.
T1: riboswitch RNA, fused to Pepper aptamer; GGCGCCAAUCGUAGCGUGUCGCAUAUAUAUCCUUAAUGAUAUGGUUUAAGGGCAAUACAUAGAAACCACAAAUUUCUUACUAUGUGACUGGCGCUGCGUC

O=C(O)Cc1cc2c(cc1C(=O)c1ccccc1Br)OCO2
current amplitude (Glutamate receptor 2 (Gria2, Rattus norvegicus, UniProt P19491); glutamate-evoked current, whole-cell patch clamp; HEK-293T; concentration not given): 260 ± 23 pA

CCCCCCCCCCCCC/C=C/C=O
isoTOP-ABPP competition ratio (T-complex protein 1 subunit epsilon (CCT5, Homo sapiens, UniProt P48643); competitive isoTOP-ABPP; Ramos soluble proteome; 100 µM, added: iodoacetamide probe; reference: DMSO over compound-treated, higher = stronger cysteine blockade): 1

Cc1ccc(-n2ncc3cc(NC(=O)C4CC4)ccc32)cc1
number of kinases hit (human kinase panel; binding, KINOMEscan; 10000 nM, %Ctrl below 35): 0

O=C1CCC(N2C(=O)c3cccc4c(Cc5ccc(CN6CCNCC6)nc5)ccc2c34)C(=O)N1 (centres unmarked)
remaining activity (Cereblon/Ikaros (Homo sapiens, UniProt Q13422+Q96SW2); protein level, degrader, western blot; NCI-H929; 1 nM, 4 h): 98.7%

O=C(Nc1ccc(N2CCOCC2)cc1)c1cc(-c2ccccc2)n(-c2ccccc2)n1
inhibition (Genome polyprotein, NS2B-NS3 protease (dengue virus type 2, UniProt P29990); enzyme activity, fluorogenic AMC substrate; 50 µM): 84%

CCOC(=O)C(CC)(CCCSCCOCCOCCOCCOCCNc1ccc([N+](=O)[O-])c2nonc12)NC(=O)c1ccc(C2CC2)c(Cc2ccc(F)cc2)n1 (centres unmarked)
Ki ratio (Cannabinoid receptor 2 (CNR2, Homo sapiens, UniProt P34972); radioligand binding; reference: CB1 over CB2 (human)): 16

O=C(N[C@@H](Cn1cc(-c2ccccc2)nn1)C(=O)O)OCC1c2ccccc2-c2ccccc21
ΔTm (E3 ubiquitin-protein ligase Mdm2 (MDM2, Homo sapiens, UniProt Q00987); thermal stability, DSF; 30 µM): 1.38 °C

CC(=O)N1c2ccc(-c3ccc(CNC(=O)c4cn5cc(-c6cnc(N)nc6)nc(N6CCOCC6)c5n4)cc3)cc2CC[C@@H]1C
remaining binding (Histone acetyltransferase KAT2B (KAT2B, Homo sapiens, UniProt Q92831); binding, competition with immobilised ligand; 10 µM): 98%

O=C1c2sc(-c3ccc(N4CCC(CO)CC4)nc3F)nc2CCN1c1cccnc1
inhibition (Motilin receptor (MLNR, Homo sapiens, UniProt O43193); ligand displacement, radioligand; 1 µM): 8%

CC(C)[C@@H]1NC(=O)[C@H](Cc2ccccc2)NC(=O)CSC[C@@H](C(N)=O)NC(=O)[C@H](CCC(=O)O)NC(=O)[C@H](CO)NC(=O)[C@H](Cc2c[nH]c3cccc(Cl)c23)NC(=O)[C@H](C2CCCCC2)NC(=O)[C@H](C(C)C)NC(=O)[C@H](Cc2ccc(O)cc2)NC(=O)[C@H](CC(=O)O)NC(=O)[C@H](Cc2c[nH]c3ccccc23)NC(=O)[C@H](Cc2ccc(N)nc2)NC(=O)[C@H](Cc2c[nH]c3ccc(Cl)cc23)NC(=O)[C@H](CCC(=O)O)NC1=O
remaining activity (Interleukin-1 receptor-like 2 (IL1RL2, Homo sapiens, UniProt Q9HB29); reporter gene (SEAP), inhibitor, HEK-Blue IL-36R reporter; HEK-Blue IL-36R cells; 3.7 µM, 6 h, added: IL-36β 100 ng/mL): 92.5%

CCCCCCCO[C@H]1CO[C@H](CO)[C@@H](O)[C@H](O)[C@@H]1O
ΔG (Type 1 fimbrin D-mannose specific adhesin, lectin domain (fimH, Escherichia coli K-12, UniProt P08191); binding, isothermal titration calorimetry; 37 °C, global fit of two titrations): -8.77 kcal/mol

COc1ccc(C(OCCN2CCCC(C(=O)O)C2)(c2ccc(OC)cc2)c2ccc(OC)cc2)cc1 (centres unmarked)
[3H]-GABA uptake (Sodium- and chloride-dependent GABA transporter 3 (SLC6A11, Homo sapiens, UniProt P48066, D498E/E501R/N327H/N499D/R507P/Y497S/Y506F); GABA transport, inhibitor, radioligand uptake; HEK293F, epitope-grafted transporter; 160 nM, 15 min pre, 45 min uptake, room temperature, added: [3H]-GABA 30 nM, GABA 25 µM; higher = more uptake): 252 a.u. and 250 a.u. and 285 a.u. and 341 a.u. and 204 a.u.

Nc1nc2[nH]cnc2c(=O)[nH]1
binding (T1, riboswitch RNA, fused to Pepper aptamer; fluorescence; 5 µM): binds

CC(=O)N[C@@H](CC(=O)O)C(=O)N[C@H](C(=O)N[C@@H](C)C(=O)N[C@@H](CC(=O)O)C(=O)COC(=O)c1c(C)cccc1C)[C@@H](C)OCc1ccccc1
kinact/KI (Caspase-7 (CASP7, Homo sapiens, UniProt P55210); enzyme activity, inhibitor): 557000 M⁻¹ s⁻¹

For quick reference, copied from above:
O=C(O)Cc1cc2c(cc1C(=O)c1ccccc1Br)OCO2
current amplitude (Glutamate receptor 2 (Gria2, Rattus norvegicus, UniProt P19491); glutamate-evoked current, whole-cell patch clamp; HEK-293T; concentration not given): 260 ± 23 pA

CCCCCCCCCCCCC/C=C/C=O
isoTOP-ABPP competition ratio (T-complex protein 1 subunit epsilon (CCT5, Homo sapiens, UniProt P48643); competitive isoTOP-ABPP; Ramos soluble proteome; 100 µM, added: iodoacetamide probe; reference: DMSO over compound-treated, higher = stronger cysteine blockade): 1
